Measurements from different studies.
Compare with care: the assays were run in different laboratories. In brackets after ≈: the same amount, converted by molar mass.
Organism: Enterococcus faecium

For `CC(=O)NC[C@H]1CN(c2ccc(N3CCOCC3)c(F)c2)C(=O)O1`, the MIC90 was 4 mg/L (≈ 11.9 µM) (agar dilution; vancomycin-intermediate; 25 isolates).
`Cc1c2c(nn1C)CSCc1cc(n(C)n1)CSc1cc(c3ccccc3c1)OCCCc1c(C(=O)O)n(C)c3c-2c(Cl)ccc13` — result for “number of isolates”: 10 (broth microdilution MIC; 12.5 µM).
The MIC90 of `CO[C@H]1[C@H](O[C@H]([C@H]2O[C@@H](n3ccc(=O)[nH]c3=O)[C@H](O)[C@@H]2O)[C@H](NCCCNC(=O)[C@@H](NC(=O)[C@@H](NC(=O)N[C@H](C(=O)O)C(C)C)[C@@H]2CCN=C(N)N2)[C@@H](O)C(C)C)C(=O)O)O[C@H](CN)[C@H]1O` is reported as > 35 mg/L (resazurin microplate; NR-32065).
`CC(=O)NC[C@H]1CN(c2ccc(N3CCOCC3)c(F)c2)C(=O)O1` gave an MIC of 2.96 µM (HM-970).
With `CN[C@H](CC(C)C)C(=O)N[C@H]1C(=O)N[C@@H](CC(N)=O)C(=O)N[C@H]2C(=O)N[C@H]3C(=O)N[C@H](C(=O)N[C@H](C(=O)O)c4cc(O)cc(O)c4-c4cc3ccc4O)[C@H](O)c3ccc(c(Cl)c3)Oc3cc2cc(c3O[C@@H]2O[C@H](CO)[C@@H](O)[C@H](O)[C@H]2O[C@H]2C[C@](C)(N)[C@H](O)[C@H](C)O2)Oc2ccc(cc2Cl)[C@H]1O` the MIC90 was > 32 mg/L (Enterococcus faecium; 40 strains).
`CCCCN(C(=O)Nc1cc(-c2ccc(Cl)c(Cl)c2)sc1C(=O)O)c1ccccc1` has an MIC of 16 µM (DSM 20477; with: no added folic acid).
`C/C=C(\C)c1cc(O)c(C)c(OC(=O)c2c(C)cc(O)c(Cl)c2O)c1` has an MIC of 8 mg/L (broth microdilution; 36711).
`C=C[C@]1(C)C[C@@H](OC(=O)CS[C@@H]2C[C@H]3CC[C@@H](C2)N3C)[C@]2(C)[C@H](C)CC[C@]3(CCC(=O)[C@H]32)[C@@H](C)[C@@H]1O` gave an MIC50 of 16 mg/L (≈ 30.9 µM) (agar dilution; vancomycin-susceptible, 64 isolates).
`Cc1ccc(CCC(=O)Nc2nnc(S(N)(=O)=O)s2)cc1` has an MIC of 0.0919 µM (NR-32053).
`C/C=C(\C)c1cc(OC(=O)c2c(O)c(C)c(O)c(Cl)c2/C(C)=C/C)c(C)c(O)c1C(=O)O` gave an MIC of 64 mg/L (broth microdilution; 36235).
`CN[C@H](CC(C)C)C(=O)N[C@H]1C(=O)N[C@@H](CC(N)=O)C(=O)N[C@H]2C(=O)N[C@H]3C(=O)N[C@H](C(=O)N[C@H](C(=O)O)c4cc(O)cc(O)c4-c4cc3ccc4O)[C@H](O)c3ccc(c(Cl)c3)Oc3cc2cc(c3O[C@@H]2O[C@H](CO)[C@@H](O)[C@H](O)[C@H]2O[C@H]2C[C@](C)(N)[C@H](O)[C@H](C)O2)Oc2ccc(cc2Cl)[C@H]1O` gave an MIC50 of 1 mg/L (≈ 0.69 µM) (agar dilution; compound-susceptible; 64 isolates).
The MIC of `C/C=C(\C)c1cc(OC(=O)c2c(C)c(Cl)c(O)c(Cl)c2O)c(C)c(O)c1C(=O)O` is reported as > 64 mg/L (broth microdilution; 35682).
For `CC[C@H]1OC(=O)[C@H](C)[C@@H](O[C@H]2C[C@@](C)(OC)[C@@H](O)[C@H](C)O2)[C@H](C)[C@@H](O[C@@H]2O[C@H](C)C[C@H](N(C)C)[C@H]2O)[C@](C)(O)C[C@@H](C)/C(=N\OCOCCOC)[C@H](C)[C@@H](O)[C@]1(C)O`, the MIC90 was > 128 mg/L (agar dilution; vancomycin-intermediate; 25 isolates).

Some of these lines once more:
For `CC[C@H]1OC(=O)[C@H](C)[C@@H](O[C@H]2C[C@@](C)(OC)[C@@H](O)[C@H](C)O2)[C@H](C)[C@@H](O[C@@H]2O[C@H](C)C[C@H](N(C)C)[C@H]2O)[C@](C)(O)C[C@@H](C)/C(=N\OCOCCOC)[C@H](C)[C@@H](O)[C@]1(C)O`, the MIC90 was > 128 mg/L (agar dilution; vancomycin-intermediate; 25 isolates).
